Experimental data of several laboratories.
± gives the spread as reported.

The Cmax of Cc1ccc([C@@H]2O[C@H](CO)[C@@H](O)[C@H](O)[C@H]2O)cc1Cc1ccc(-c2ccc(F)cc2)s1 is reported as 597 ± 95.2 ng/mL (albino rabbit, plasma; oral or sublingual, dose not given).
For Cn1cc(C(N)=O)c(NC2C3CC4CC2CC(O)(C4)C3)c2ccnc1-2 (centres unmarked), the Cmax was 35.6 ng/mL (Japanese adults, normal hepatic function, plasma; oral, 150 mg single dose).
For CONC(=O)/C=C/c1cccc(S(=O)(=O)Nc2ccccc2)c1, the Cmax was 2990 ng/mL (patients with mild liver dysfunction, plasma; intravenous, 400 mg/m^2 belinostat, single 30 min infusion, cycle 1 day -7, mean).
CCCC[C@H](NC(=O)[C@H](CC(C)C)N(C)C(=O)CNC(=O)[C@@H](NC(=O)[C@H](Cc1ccccc1)NC(=O)[C@H](CCCCN)NC(=O)[C@@H](N)CC(=O)O)C(C)C)C(N)=O gave a Cmax of 123 ng/mL (Göttingen minipig, plasma; subcutaneous, 100 µg/kg).
With Cc1ccccc1-c1cc(N2CC[N+](C)([O-])CC2)ncc1N(C)C(=O)C(C)(C)c1cc(C(F)(F)F)cc(C(F)(F)F)c1 the Cmax was 147 to 202 ng/mL (healthy volunteers, plasma; oral, dose not given).
For CC(C)(Sc1ccncc1-c1ccc(C#N)c2ccccc12)C(=O)OC1OC(C(=O)O)C(O)C(O)C1O (centres unmarked), the Cmax was 91 ng/mL (plasma; oral, 15 mg, severe renal impairment, fasted).
With O=C(O)/C=C/c1cccc(S(=O)(=O)Nc2ccccc2)c1 the Cmax was 1680 ng/mL (patients with normal liver function, plasma; intravenous, 400 mg/m^2 belinostat, single 30 min infusion, cycle 1 day -7, mean).
Cn1cc(C(N)=O)c(NC2C3CC4CC2CC(OS(=O)(=O)O)(C4)C3)c2ccnc1-2 (centres unmarked) gave a Cmax of 44.8 ng/mL (Japanese adults, normal hepatic function, plasma; oral, 150 mg single dose).
With NC(=O)/C=C/c1cccc(S(=O)(=O)Nc2ccccc2)c1 the Cmax was 1790 ng/mL (patients with mild liver dysfunction, plasma; intravenous, 400 mg/m^2 belinostat, single 30 min infusion, cycle 1 day -7, mean).
With CN1CCN(c2cc(-c3ccccc3CO)c(N(C)C(=O)C(C)(C)c3cc(C(F)(F)F)cc(C(F)(F)F)c3)cn2)CC1 the Cmax was 60.1 to 81.8 ng/mL (healthy volunteers, plasma; oral, dose not given).
The Cmax of CC(C)[C@H](NC(=O)CNC(=O)[C@H](CCC(N)=O)NC(=O)[C@H](C)N)C(=O)O is reported as 1980 ng/mL (healthy volunteers, LPS endotoxaemia, plasma; intravenous, 15 mg/kg/h, 2 h infusion, geometric mean, together with: LPS 2 ng/kg).
With NC(=O)c1cnc2[nH]ccc2c1NC1C2CC3CC1CC(OS(=O)(=O)O)(C3)C2 (centres unmarked) the Cmax was 809 ng/mL (Japanese adults, mild hepatic impairment, plasma; oral, 150 mg single dose).
O=C(O)c1cccc(S(=O)(=O)Nc2ccccc2)c1 gave a Cmax of 2560 ng/mL (patients with normal liver function, plasma; intravenous, 400 mg/m^2 belinostat, single 30 min infusion, cycle 1 day -7, mean).
With Cc1ccccc1-c1cc(N2CCNCC2)ncc1N(C)C(=O)C(C)(C)c1cc(C(F)(F)F)cc(C(F)(F)F)c1 the Cmax was 36 to 40.6 ng/mL (cancer patients, plasma; oral, dose not given, netupitant-palonosetron single dose, range of means).
CC(=O)N[C@H](CC(=O)O)C(=O)N[C@H](Cc1c[nH]c2ccccc12)C(=O)N[C@H](Cc1ccccc1)C(=O)N[C@H](CCCCN)C(=O)N[C@H](C)C(=O)N[C@H](Cc1ccccc1)C(=O)N[C@H](Cc1ccc(O)cc1)C(=O)N[C@H](CC(=O)O)C(=O)N[C@H](CCCCN)C(=O)N[C@@H](C(=O)N[C@H](C)C(=O)N[C@H](CCC(=O)O)C(=O)N[C@H](CCCCN)C(=O)N[C@H](Cc1ccccc1)C(=O)N[C@H](CCCCN)C(=O)N[C@H](CCC(=O)O)C(=O)N[C@H](C)C(=O)N[C@H](Cc1ccccc1)C(N)=O)C(C)C gave a Cmax of 33.6 ng/mL (statin-treated high-risk CHD men, plasma; oral, 500 mg daily, day 13, 0-8 h, mean of detected values, outlier woman excluded).
The Cmax of CC(C)(Sc1cc[n+]([O-])cc1-c1ccc(C#N)c2ccccc12)C(=O)OC1OC(C(=O)O)C(O)C(O)C1O (centres unmarked) is reported as 87.2 ng/mL (plasma; oral, 15 mg, severe renal impairment, fasted).
CN1CC[C@@H](NC(=O)Nc2ccc(C#N)cc2)C[C@@H]1c1nc2ccccc2[nH]1 gave a Cmax of 612 ng/mL (item: total compound; severe hepatic impairment, plasma; oral, 100 mg single dose, fasted, arithmetic mean).
CC[C@@H](C)[C@H]1NC(=O)[C@@H]([C@H](C)O)NC(=O)[C@@H](Cc2c[nH]cn2)NC(=O)CNC(=O)[C@@H](CCCNC(=N)N)NC(=O)CNC(=O)[C@@H](Cc2ccccc2)NC1=O gave a Cmax of 52 µg/g protein (rabbit, retina-choroid; ocular, 0.5% eye drop).
With CN(C(=O)c1ccn2ncc(-c3ccc(C(N)=O)cc3)c2c1)c1ccc(C#N)cn1 the Cmax was 228 nM (neonatal male Friesian-Holstein calf, plasma; oral, 5 mg/kg, days 1 and 7).
COc1cc(C)c(Cc2ccc(O)cc2)cc1[C@@H]1S[C@H](CO)[C@@H](O)[C@H](O)[C@H]1O gave a Cmax of 2.95 ± 0.522 ng/mL (Japanese T2DM patients, plasma; 1 mg luseogliflozin, day 7, once daily).

Repeated from above:
With NC(=O)/C=C/c1cccc(S(=O)(=O)Nc2ccccc2)c1 the Cmax was 1790 ng/mL (patients with mild liver dysfunction, plasma; intravenous, 400 mg/m^2 belinostat, single 30 min infusion, cycle 1 day -7, mean).
CC[C@@H](C)[C@H]1NC(=O)[C@@H]([C@H](C)O)NC(=O)[C@@H](Cc2c[nH]cn2)NC(=O)CNC(=O)[C@@H](CCCNC(=N)N)NC(=O)CNC(=O)[C@@H](Cc2ccccc2)NC1=O gave a Cmax of 52 µg/g protein (rabbit, retina-choroid; ocular, 0.5% eye drop).
O=C(O)c1cccc(S(=O)(=O)Nc2ccccc2)c1 gave a Cmax of 2560 ng/mL (patients with normal liver function, plasma; intravenous, 400 mg/m^2 belinostat, single 30 min infusion, cycle 1 day -7, mean).
